Measured values collected from several papers.
Protocols differ between the studies behind these lines. Numbers after ± are the reported error.

COc1ccc(F)cc1C(=O)NCc1ccc(-c2nn([C@@H](C)C(F)(F)F)c(N)c2C(N)=O)cc1  tumour growth inhibition (TMD8, mouse xenograft; oral, 15 mg/kg twice daily, day 14, 336 h): 76%
C=CC(=O)Nc1cc(Nc2nccc(Nc3cc(Cl)c(F)cc3C(C)(C)O)n2)c(OC)cc1N1CC[C@@H](N(C)C)C1  tumour growth inhibition (NCI-H2073 parental, EGFR wild type, BALB/c nude mouse, NCI-H2073 xenograft; 12.5 mg/kg twice daily, 21 days): 65.1%
COc1ccc(CN2C3CC2CN(c2ccc(-c4cc(OCC(C)(C)O)cn5ncc(C#N)c45)cn2)C3)cn1  tumour growth inhibition (xenograft; Ba/F3 KIF5B-RET G810C, SHO mouse CDX; oral, 25 mg/kg once daily): no effect
CCCCc1nc2cc(/C=C/C(=O)NO)ccc2n1CCN(CC)CC  tumour growth inhibition (mouse, HEL 92.1.7 subcutaneous xenograft; 75 mg/kg every other day, day 0 to 17): 14%
CC(=O)c1c(C)c2cnc(Nc3ccc(N4CCNCC4)cn3)nc2n(C2CCCC2)c1=O  tumour growth inhibition (MCF7, mouse xenograft; oral, 50 mg/kg daily, 32 days, last treatment day): 74%
O=C1CC[C@H](N2Cc3cc(N4CCN(CC5CCN(c6ccc([C@@H]7c8ccc(O)cc8CC[C@@H]7c7ccccc7)cc6)CC5)CC4)ccc3C2=O)C(=O)N1  tumour growth inhibition (mouse MCF7 orthotopic xenograft; oral, 3 mg/kg once daily, 28 days): 85%
C=CC(=O)Nc1cc(Nc2ncc(C(=O)OC(C)C)c(-c3cn(C)c4ccccc34)n2)c(OC)cc1N(C)CCN(C)C  tumour growth inhibition (mouse NCI-H2073 xenograft; oral, 30 mg/kg once daily, day 14): 165%
Nc1nnc(-c2ccccc2O)cc1N1CCN(Cc2ccc(OCCOCCNc3cccc4c3C(=O)N(C3CCC(=O)NC3=O)C4=O)c(F)c2)CC1 (stereo not drawn)  tumour growth inhibition (nude mouse, NCI-H322 xenograft; intraperitoneal, 12.5 mg/kg daily, 25 days): 49%
COc1cccc2c1C(=O)c1c(O)c3c(c(O)c1C2=O)C[C@@](O)(C(=O)CO)C[C@@H]3O[C@H]1C[C@H](N)[C@H](O)[C@H](C)O1  tumour growth inhibition (mouse, A549 subcutaneous xenograft; intravenous, 5 mg/kg, weekly for four weeks, with: PhAc-ALGP-prodrug 154 mg/kg): 68%
C[C@]12CC[C@H](n3ccnc3)CC1=CC[C@@H]1[C@@H]2CC[C@]2(C)C(n3cnc4ccccc43)=CC[C@@H]12.Cl  tumour growth inhibition (mouse CWR22Rv1 xenograft; oral, 20 mg/kg once daily, 16 days, 5 days per week): 140%
C[C@@H]1COCCN1c1cc([C@]2(O)C[C@H]3CC[C@@H](C2)O3)c2cnn(-c3cc[nH]n3)c2n1  tumour growth inhibition (Granta-519 xenograft, mouse; 30 mg/kg QD x3, day 20): 83.8 ± 2.4%
Cl.O=C(c1cc(Cc2n[nH]c(=O)c3ccccc23)ccc1F)N1CC(CNC2CC2)C1  tumour growth inhibition (athymic nude mouse, sample A ovarian PDX; oral, 12.5 mg/kg once daily, 63 days): 131%
CCCCC(=O)Nc1ccc(-c2ccc3ncn(CCC)c(=O)c3c2)cn1  tumour growth inhibition (mouse HCC827 xenograft; oral, dose not given): > 60%
COCc1cc(C(=O)Nc2cc([C@H]3CC[C@@H](OC(=O)NC(C)C)C3)[nH]n2)n(C)n1  tumour growth inhibition (OVCAR-3 xenograft, NSG mouse; oral twice daily, highest dose of escalation): 85%
CC(=O)O[C@@]12CO[C@@H]1C[C@H](O)[C@@]1(C)C(=O)[C@H](O)C3=C(C)[C@@H](OC(=O)[C@H](O)[C@@H](NC(=O)OC(C)(C)C)c4ccccc4)C[C@@](O)([C@@H](OC(=O)c4ccccc4)[C@H]21)C3(C)C  tumour growth inhibition (mouse, CWR22Rv1 CRPC xenograft; ip, 5 mg/kg, 16 days, 3 times per week): 56.9%
CC(C)c1ccccc1[C@@H]1CCCN1C1CC2(CCN(c3ccc(C(=O)NS(=O)(=O)c4ccc(NC[C@H]5CC[C@](C)(O)CC5)c([N+](=O)[O-])c4)c(Oc4cnc5[nH]ccc5c4)c3)CC2)C1  tumour growth inhibition (mouse RS4;11 xenograft; oral, 5 mg/kg once daily, day 14): 98%
Cc1ncsc1-c1ccc(CNC(=O)[C@@H]2C[C@@H](O)CN2C(=O)[C@@H](NC(=O)CCCCCCCCCC(=O)N2CCN(CC[C@H](NC(=O)C3(N)CCN(c4ncnc5[nH]ccc45)CC3)c3ccc(Cl)cc3)CC2)C(C)(C)C)cc1  tumour growth inhibition (nude mouse, PC-3 xenograft; intraperitoneal, 75 mg/kg once daily, 21 days; baseline: vehicle): > 90%
C=CC(=O)N1CCC[C@@H](n2nc(-c3ccc(Oc4ccccc4)cc3)c3c(N)ncnc32)C1  tumour growth inhibition (Rec-1 mantle cell lymphoma xenograft, mouse; 30 mg/kg twice daily; baseline: vehicle): 85%

Repeated from above:
O=C1CC[C@H](N2Cc3cc(N4CCN(CC5CCN(c6ccc([C@@H]7c8ccc(O)cc8CC[C@@H]7c7ccccc7)cc6)CC5)CC4)ccc3C2=O)C(=O)N1  tumour growth inhibition (mouse MCF7 orthotopic xenograft; oral, 3 mg/kg once daily, 28 days): 85%
C=CC(=O)Nc1cc(Nc2ncc(C(=O)OC(C)C)c(-c3cn(C)c4ccccc34)n2)c(OC)cc1N(C)CCN(C)C  tumour growth inhibition (mouse NCI-H2073 xenograft; oral, 30 mg/kg once daily, day 14): 165%
